Measured values of several laboratories.
Compare with care: the assays were run in different laboratories. “And” joins repeats or separate records; there may be more than shown. ± gives the spread as reported. Converted amounts (≈) assume the structure as drawn.

SMILES	cell line	assay	test system	setting	scale	quantity	value
Cc1ccc(OCCN(C)C)cc1C(=O)N[C@H](C)c1cc(-c2ccn(C)n2)nc2ccccc12	Vero E6			31.25 µM		viability	81.8% and 93.7% and 96.2%
CC(C)C[C@H](N)C(=O)N[C@@H](Cc1c[nH]c2ccccc12)C(=O)N[C@@H](CCCNC(=N)N)C(=O)N[C@@H](CCCNC(=N)N)C(=O)N[C@@H](Cc1c[nH]c2ccccc12)C(=O)N[C@@H](CCCNC(=N)N)C(=O)N[C@@H](Cc1c[nH]c2ccccc12)C(=O)N[C@@H](Cc1c[nH]c2ccccc12)C(=O)N[C@@H](Cc1c[nH]c2ccccc12)C(=O)O	HEK-293T cells	CCK-8		4 h, 37 °C, 10% cell death		lowest cytotoxic concentration	128 µg/mL
CNC(=O)C[C@H](Cc1ccc(F)cc1)NC(=O)[C@@H](Cc1ccc(Cl)cc1Cl)NC(=O)[C@H](N)Cc1ccccc1C#N	Huh-7-ACE2	CellTiter-Glo		0.0977 µM, 48 h, unit not given	reference: DMSO	viability	0.961 and 1.06
N=C(N)NCCC[C@H](NC(=O)CN)C(=O)N[C@@H](Cc1c[nH]c2ccccc12)C(=O)N[C@@H](CCCNC(=N)N)C(=O)N[C@@H](Cc1c[nH]c2ccccc12)C(=O)N[C@@H](Cc1c[nH]c2ccccc12)C(=O)N[C@@H](Cc1c[nH]c2ccccc12)C(=O)N[C@@H](CCCNC(=N)N)C(=O)N[C@@H](Cc1c[nH]c2ccccc12)C(=O)N[C@@H](CCCNC(=N)N)C(=O)N[C@@H](Cc1ccccc1)C(N)=O	mouse red blood cells					minimal haemolytic concentration	16 µM
C#CCOc1ccc(CN[C@@]2(C)C[C@H](O[C@H]3[C@H](Oc4c5cc6cc4Oc4ccc(cc4Cl)[C@@H](O)[C@@H](NC(=O)[C@@H](CC(C)C)NC)C(=O)N[C@@H](CC(N)=O)C(=O)N[C@H]6C(=O)N[C@H]4C(=O)N[C@H](C(=O)N[C@H](C(=O)N[C@@H](CCCNC(=N)N)C(N)=O)c6cc(O)cc(O)c6-c6cc4ccc6O)[C@H](O)c4ccc(c(Cl)c4)O5)O[C@H](CO)[C@@H](O)[C@@H]3O)O[C@@H](C)[C@H]2O)cc1OC	sheep erythrocytes			512 µg/mL, 37 °C	reference: Triton X-100	hemolysis	< 5%
O=C(O)c1cccc(CP(=O)(O)O)n1	H4IIE	lysosome integrity, neutral red uptake		24 h, without 10% FBS		EC50	200 ± 10 µg/mL (≈ 921 µM)
CCn1cc(-c2cc([C@@H](C)NC(=O)c3cc(OCCN(C)C)ccc3C)c3ccccc3n2)c(C(F)(F)F)n1	Vero E6			250 µM		viability	1.35% and 2.5%
Nc1nc(Nc2ccc(Cl)cc2)nn1S(=O)(=O)c1ccc2ccccc2c1	Vero 76					CC50	25 µM
Cn1ccc([C@H](CO)Nc2nc(N3C[C@@H]4C[C@H]3CO4)c3cc(-c4ccccc4)oc3n2)n1	RRCK (MDCK)					Papp	37.8 ± 5.5 ×10⁻⁶ cm/s
O=C1C=CC(=O)c2c(O)cccc21	MRC-5	cytotoxicity, MTT		48 h, 10% FBS		IC50	26.2 ± 0.53 µM
N=C(N)NCCC[C@H](NC(=O)[C@H](Cc1c[nH]c2ccccc12)NC(=O)[C@H](CCCNC(=N)N)NC(=O)[C@H](Cc1c[nH]c2ccccc12)NC(=O)[C@H](Cc1c[nH]c2ccccc12)NC(=O)[C@H](Cc1c[nH]c2ccccc12)NC(=O)[C@H](CCCNC(=N)N)NC(=O)[C@H](Cc1c[nH]c2ccccc12)NC(=O)[C@H](CCCNC(=N)N)NC(=O)CN)C(N)=O	mouse red blood cells					minimal haemolytic concentration	> 128 µM
Cc1cc(-c2cc([C@@H](C)NC(=O)c3cc(OCCN(C)C)ccc3C)c3ccccc3n2)n(C)n1	Vero E6			3.906 µM		viability	106% and 105%
CNC(=O)C[C@H](Cc1ccncc1)NC(=O)[C@@H](Cc1cccc(Br)c1)NC(=O)[C@@H](N)Cc1ccsc1	Huh-7-ACE2	CellTiter-Glo		0.391 µM, 48 h, unit not given	reference: DMSO	viability	1.05 and 1.1
Cc1ccc(N(C)CCN2CCOCC2)cc1C(=O)N[C@H](C)c1cc(-c2cnn(C)c2)nc2ccccc12	Vero E6			15.62 µM		viability	92.1% and 91.7% and 90.8%
CCCCCC1=C(NCC)C(=O)C(C/C=C(\C)CCC=C(C)C)=C(O)C1=O	human peripheral lymphocytes			40 µg/mL, 3 h, with S9, harvest 27 h		cytostasis	20%
CC(C)[C@H](NC(=O)[C@H](CCCNC(=N)N)NC(=O)[C@H](Cc1c[nH]c2ccccc12)NC(=O)[C@H](CCCNC(=N)N)NC(=O)[C@H](Cc1c[nH]c2ccccc12)NC(=O)[C@H](Cc1c[nH]c2ccccc12)NC(=O)[C@H](Cc1c[nH]c2ccccc12)NC(=O)[C@H](CCCNC(=N)N)NC(=O)[C@H](Cc1c[nH]c2ccccc12)NC(=O)[C@@H](N)CCCNC(=N)N)C(N)=O	mouse red blood cells					minimal haemolytic concentration	64 µM
Cc1ccc(N2CCC(N(C)C)CC2)cc1C(=O)N[C@H](C)c1cc(-c2cnn(C)c2)nc2ccccc12	Vero E6			250 µM		viability	0.514% and 0.342%

SMILES	cell line	assay	test system	setting	scale	quantity	value
NC(=O)c1cc(-c2cccnc2)ccc1OCCc1cccc(F)c1	HepG2			3 (unit not given)	reference: CC50 glucose over CC50 galactose	selectivity ratio	< 1
C[C@H](NC(=O)[C@H](CCCNC(=N)N)NC(=O)[C@H](Cc1c[nH]c2ccccc12)NC(=O)[C@H](CCCNC(=N)N)NC(=O)[C@H](Cc1c[nH]c2ccccc12)NC(=O)[C@H](Cc1c[nH]c2ccccc12)NC(=O)[C@H](Cc1c[nH]c2ccccc12)NC(=O)[C@H](CCCNC(=N)N)NC(=O)[C@H](Cc1c[nH]c2ccccc12)NC(=O)[C@H](CCCNC(=N)N)NC(=O)CN)C(N)=O	mouse red blood cells					minimal haemolytic concentration	64 µM
CC1CCC(C(C)(C)C(=O)Nc2ccc(Oc3ccccc3)cc2)CC1 (stereo not shown)	CHO	cell growth or viability		72 h		IC50	> 100 µM
O=C(C=Cc1ccc(O)c(O)c1)OC1CC(O)(C(=O)O)CC(OC(=O)C=Cc2ccc(O)c(O)c2)C1O (stereo not shown)	Vero E6			12.5 µM		cytotoxicity	0%
O=C1C=CC(=O)c2c(O)ccc(O)c21	MRC-5	cytotoxicity, MTT		48 h, 10% FBS		IC50	6.42 ± 0.05 µM
CCC1=C(C)C2=C(c3ccc(C(=O)NCCNC(=O)c4ccc(P(=NC5=[O+][Ru-]([Cl])[n+]6ccccc65)(c5ccccc5)c5ccccc5)cc4)cc3)c3c(C)c(CC)c(C)n3[B-](F)(F)[N+]2=C1C.Cc1ccc(C(C)C)cc1.[Cl-]	MDA-MB-231	confocal microscopy		10 µM, added: ER-Tracker Red		ER colocalization	83 ± 9%
O=c1n(CCNCCOS(=O)(=O)c2ccccc2)c(=O)n(S(=O)(=O)c2ccccc2)c(=O)n1S(=O)(=O)c1ccccc1	HUVEC	cell growth or viability, MTT		50 µg/mL, 48 h		viability	26.7%
Cc1ccc(N2CC(N(C)C)C2)cc1C(=O)N[C@H](C)c1cc(-c2cnn(C)c2)nc2ccccc12	Vero E6			500 µM		viability	0.628% and -0.157% and 2.04%
O=C(CCCCCOc1ccc2ccccc2c1)N[C@@H](CO)C[C@@H](O)c1ccc(-c2ccccc2)cc1	HeLa			1 µM, lipidomics treatment		living cells	93% and 87% and 97%
CCOc1ccc(CN2CC[C@H]2C(=O)NC)cc1-c1cccc(C(=O)NC[C@@H]2COC(C)(C)O2)c1	Huh-7-ACE2	CellTiter-Glo		6.25 µM, 48 h, unit not given	reference: DMSO	viability	0.884 and 0.975 and 0.902
C#CCOc1c(/C=N/NC(=O)CCl)cc2c3c1C(C)(C)CCN3CCC2(C)C	HepG2	cell growth or viability, ATP luminescence		24 h		IC50	61.8 µM
CC(C)C[C@H](NC(=O)[C@H](CCC(=O)O)NC(=O)[C@H](Cc1ccccc1)NC(=O)[C@@H]1CCCN1C(=O)CNC(=O)OCc1ccccc1)C(=O)N[C@@H](CCC(=O)O)C(=O)N[C@@H](CCCNC(=N)N)C(=O)N[C@@H](CCCNC(=N)N)C(=O)N[C@@H](Cc1ccccc1)C(=O)N[C@@H](CCCCN)C(=O)N[C@@H](CCC(N)=O)C(=O)N[C@@H](CCC(N)=O)C(=O)O	HCT-116	LC-MS/MS	serum-free DMEM	20 µM, 2 h		hydrolysis	7.5%
CN(C)CCCNC(=O)[C@@H]1NC(=O)[C@@H]2Cc3ccc(cc3)Oc3cc4cc(c3O)-c3ccc5c(c[nH]c5c3)C[C@@H](NC(=O)C(NC(=O)CCCCCN)c3ccc(O)cc3)C(=O)N[C@H](c3ccc(O)cc3)C(=O)N[C@H]4C(=O)N[C@@H](C(=O)N2C)c2ccc(cc2)Oc2cc1ccc2O (stereo partly shown)	human red blood cells		PBS	4 µg/mL, 1 h, pH 7.4, 37 °C		hemolysis	0.95% and 0%
CNC(=O)C[C@H](Cc1ccccc1)NC(=O)[C@@H](Cc1ccc(Cl)cc1Cl)NC(=O)[C@H](N)Cc1ccccc1C#N	Huh-7-ACE2	CellTiter-Glo		0.000381 µM, 48 h, unit not given	reference: DMSO	viability	0.913 and 0.998 and 0.996
Cc1ccc(OCC2CN(C)C2)cc1C(=O)N[C@H](C)c1cc(-c2cnn(C)c2)nc2ccccc12	Vero E6			7.812 µM		viability	95.5% and 93.6% and 96.4%
CNC(=O)C[C@H](Cc1ccc(F)cc1)NC(=O)[C@@H](Cc1ccc(Cl)cc1Cl)NC(=O)[C@H](N)Cc1ccccc1[N+](=O)[O-]	Huh-7-ACE2	CellTiter-Glo		0.00305 µM, 48 h, unit not given	reference: DMSO	viability	1.06 and 1.05 and 1.01
Cc1ccc(N(C)C2CN(C)C2)cc1C(=O)N[C@H](C)c1cc(-c2cnn(C)c2)nc2ccccc12	Vero E6			125 µM		viability	15.9% and 14.9% and 22.6%

Some of these lines once more:
SMILES	cell line	assay	test system	setting	scale	quantity	value
Cc1ccc(N2CC(N(C)C)C2)cc1C(=O)N[C@H](C)c1cc(-c2cnn(C)c2)nc2ccccc12	Vero E6			500 µM		viability	0.628% and -0.157% and 2.04%
O=C(CCCCCOc1ccc2ccccc2c1)N[C@@H](CO)C[C@@H](O)c1ccc(-c2ccccc2)cc1	HeLa			1 µM, lipidomics treatment		living cells	93% and 87% and 97%
CCOc1ccc(CN2CC[C@H]2C(=O)NC)cc1-c1cccc(C(=O)NC[C@@H]2COC(C)(C)O2)c1	Huh-7-ACE2	CellTiter-Glo		6.25 µM, 48 h, unit not given	reference: DMSO	viability	0.884 and 0.975 and 0.902
